Results pooled from the literature.
Compare with care: the assays were run in different laboratories. ± gives the spread as reported.
Technique: steady-state kinetics
B1: CPB2 (Homo sapiens, UniProt Q96IY4); chain ASASYYEQYHSLNEIYSWIEFITERHPDMLTKIHIGSSFEKYPLYVLKVSGKEQAAKNAIWIDCGIHAREWISPAFCLWFIGHITQFYGIIGQYTNLLRLVDFYVMPVVNVDGYDYSWKKNRMWRKNRSFYANNHCIGTDLNRNFASKHWCEEGASSSSCSETYCGLYPESEPEVKAVASFLRRNINQIKAYISMHSYSQHIVFPYSYTRSKSKDHEELSLVASEAVRAIEKISKNTRYTHGHGSETLYLAPGGGDDWIYDLGIKYSFTIELRDTGTYGFLLPERYIKPTCREAFAAVSKIAWHVIRNV
B2: protein F432W (Streptomyces toyocaensis, UniProt Q8KLK7); chain MTTVLPPLEDTDGLWAALTEAAASVEKLLATLPEHGARSSAERAEIAAAHDAARALRVRFLDTHADAVYDRLTDHRRVHLRLAELVEAAATAFPGLVPTQQQLAVERSLPQAAKEGHEIDQGIFLRAVLRSPLAGPHLLDAMLRPTPRALELLPEFVRTGEVEMEAVHLERRDGVARLTMCRDDRLNAEDGQQVDDMETAVDLALLDPGVRVGLLRGGVMSHPRYRGKRVFSAGINLKYLSQGGISLVDFLMRRELGYIHKLVRGVLTNDDRPGWWHSPRIEKPWVAAVDGFAIGGGAQLLLVFDRVLASSDAYFSLPAAKEGIIPGAANLRLGRFAGPRVSRQVILEGRRIWAKEPEARLLVDEVVEPDELDAAIERSLTRLDGDAVLANRRMLNLADESPDGFRAYMAEFALMQALRLYGHDVIDKVGRWGGRPPA
B3: enzyme (Sphingopyxis macrogoltabida, UniProt D2D3B2); chain MANGTRQKDLRERAERVIPGGMYGHESTRLLPPEFPQFFRRALGARIWDADEQPYIDYMCAYGPNLLGYRQSEIEAAADAQRLLGDTMTGPSEIMVNLAEAFVGMVRHADWAMFCKNGSDATSTAMVLARAHTGRKTILCAKGAYHGASPWNTPHTAGILASDRVHVAYYTYNDAQSLSDAFKAHDGDIAAVFATPFRHEVFEDQALAQLEFARTARKCCDETGALLVVDDVRAGFRVARDCSWTHLGIEPDLSCWGKCFANGYPISALLGSNKARDAARDIFVTGSFWFSAVPMAAAIETLRIIRETPYLETLIASGAALRAGLEAQSQRHGLELKQTGPAQMPQIFFADDPDFRIGYAWAAACLKGGVYVHPYHNMFLSAAHTVDDVTETLEATDRAFSAVLRDFASLQPHPILMQLAGA
B4: nitrilase Y142F (Rhodococcus rhodochrous, UniProt A4LA85); chain MVEYTNTFKVAAVQAQPVWFDAAKTVDKTVSIIAEAARNGCELVAFPEVFIPGYPYHIWVDSPLAGMAKFAVRYHENSLTMDSPHVQRLLDAARDHNIAVVVGISERDGGSLYMTQLIIDADGQLVARRRKLKPTHVERSVFGEGNGSDISVYDMPFARLGALNCWEHFQTLTKYAMYSMHEQVHVASWPGMSLYQPEVPAFGVDAQLTATRMYALEGQTFVVCTTQVVTPEAHEFFCENEEQRKLIGRGGGFARIIGPDGRDLATPLAEDEEGILYADIDLSAITLAKQAADPVGHYSRPDVLSLNFNQRRTTPVNTPLSTIHATHTFVPQFGALDGVRELNGADEQRALPSTHSDETDRATASI
B5: protein E15D (Rhodopseudomonas palustris, UniProt Q6N3R9); chain MSNVRVLATDLAFPDGPVVMPDGSVVLVEIRAQQLTRVWPDGRKEVVAKVPGGPNGAALGPDGKMYICNNGGFGWFPSRGTMMPGAPAPHEYIGGSIQRVDLQSGEVETLFDKCGEHPLKGPNDLVFDKHGGLWFTDLGKRRARDMDVGAAYYIKPGMTEITEQVFGTLPLNGIGLSPDEATMYAAETPTGRLWAFDLSGPGEVKPRDVIYRGEKGKPICGLGGYQMFDSLAVEASGNVCVATLVSGCISVIAPDGTLVEQVPTGDRVTTNIAFGGPDLKTAYITLSGKGELIAMDWSRPGLPLNFLNK
B6: enzyme D392A (Acetivibrio thermocellus, UniProt A3DJ38); chain MKLTIPELSLVVLIGSSGSGKSTFAKKHFKPTEVISSDFCRGLVSDDENDQTVTGAAFDVLHYIVSKRLQLGKLTVVDATNVQESARKPLIEIAKDYHCFPVAVVFNLPEKVCQERNKNRTDRQVEEYVIRKHTQQLKKSIKGLQREGFRYVYILNSPEEVEEVVFERQPLWNNKKDEHGPFDIIGDIHGCYDELKMLLEKLGYLIEEVEGGVGSGKYRVTHPEGRKVLFLGDLVDRGPKITEVLKLVMGMVKSGIALCVPGNHDVKLLRKLNGRDVQITHGLDRTLEQLAKEPQEFIEEVKAFIDGLVSHYVLDDGKLVVAHAGMKEEFQGRGSGKVREFALYGETTGETDEYGLPVRYDWASDYRGKALVVYGHTPQAEVLKVNNTINIATGCVFGGKLTAYRYPEREIVDVKALKTYYEPAKPFLPKEDMAERFEARTDNDILDINDVLGKKIITTRLMSSITIHEENSIAALEVMSRFAADPHWLIYLPPTMSPCETSKKEGMLEHPIEAFEYFRTRGVGKVVCEQKHMGSRAVVIVCKDSQVAEKRFGVLDGTAGICYTRTGRHFFDDMQLEAELIDRVRKVLDKSGFWGDFNTDWVCLDCELMPWSAKAQKLLEEQYSAVGISGRVVLDEAVKLLKQASLNKTVSFDVSRQTSGKNADINELLQRFTERSEMMQKYVEAYRKYCWPVNSIDDLKLAPFHILATEGKVHSDKNHIWHMDTIAKYCTQDDSLIMATNHILVDVTDAESVDKGIKWWEDLTASGGEGMVVKPYDFIVKNGRELLQPAVKCRGREYLRIIYGPEYTMDENIERLRNRAVGKKRSLALREFSLGMEALERFVRNEPLYRVHECVFGVLALESEPVDPRL
UniProt P21645, sequence (whole entry, looked up): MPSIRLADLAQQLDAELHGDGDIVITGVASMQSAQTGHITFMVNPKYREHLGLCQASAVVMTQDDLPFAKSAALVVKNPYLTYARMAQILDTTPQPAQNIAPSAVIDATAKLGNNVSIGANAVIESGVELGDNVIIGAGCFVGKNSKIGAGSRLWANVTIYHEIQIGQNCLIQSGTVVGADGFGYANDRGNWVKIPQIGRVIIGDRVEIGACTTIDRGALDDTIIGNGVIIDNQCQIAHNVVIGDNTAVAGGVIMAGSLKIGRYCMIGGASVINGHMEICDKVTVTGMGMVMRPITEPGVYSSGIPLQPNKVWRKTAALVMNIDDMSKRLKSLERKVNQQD

| Substance | substrate | pH | temperature | notes | with | kcat [s⁻¹] |
| --- | --- | --- | --- | --- | --- | --- |
| B1 (CPB2) | C[C@H](NC(=O)[C@H](Cc1ccccc1)NC(=O)[C@H](CCC(N)=O)NC(=O)CNC(=O)[C@@H]1CCCN1C(=O)[C@H](Cc1ccccc1)NC(=O)[C@@H](N)Cc1ccc(O)cc1)C(=O)N[C@@H](Cc1ccccc1)C(=O)N[C@@H](CO)C(=O)N[C@@H](CCCCN)C(=O)O | – | 37 °C | – | – | 2.7 ± 0.1 |
| ATIC (Cryptococcus neoformans, UniProt J9VJP1) | NC(=O)c1ncn([C@@H]2O[C@H](COP(=O)(O)O)[C@@H](O)[C@H]2O)c1N | pH 7.5 | 37 °C | KCl 25 mM, apparent | N10-formyl-tetrahydrofolate 0.1 mM | 7.5 ± 0.1 |
| B2 (protein F432W) | CC(C)(COP(=O)(O)OP(=O)(O)OC[C@H]1O[C@@H](n2cnc3c(N)ncnc32)[C@H](O)[C@@H]1OP(=O)(O)O)[C@@H](O)C(=O)NCCC(=O)NCCSC(=O)Cc1cc(O)cc(O)c1 | pH 7.5 | 24 °C | – | O2 | 0.081 ± 0.006 |
| lpxD (Escherichia coli, UniProt P21645) | CCCCCCCCCCC[C@@H](O)CC(=O)O[C@@H]1[C@@H](N)[C@@H](OP(=O)(O)OP(=O)(O)OC[C@H]2O[C@@H](n3ccc(=O)[nH]c3=O)[C@H](O)[C@@H]2O)O[C@H](CO)[C@H]1O | pH 8 | 25 °C | – | – | 3 |
| B3 (enzyme) | CCCC[C@@H](C)[C@@H](O)[C@@H](O)C[C@@H](C)C[C@H](O)CCCC[C@@H](O)C[C@H](O)[C@H](C)N | pH 8 | 35 °C | apparent | – | 1.73 |
| enzyme (Paenarthrobacter nicotinovorans, UniProt P08159) | CN1CCC[C@@H]1c1ccc(O)nc1 | pH 8 | 25 °C | – | – | 77 ± 24 |
| B4 (nitrilase Y142F) | N#Cc1ccccn1 | pH 7.5 | 25 °C | – | – | 0.000118 ± 1.67e-06 |
| B5 (protein E15D) | O=C1CCc2ccccc2O1 | pH 8 | – | NaCl 150 mM, no saturation | CaCl2 1 mM | > 62 |
| aacA-aphD (Staphylococcus aureus, UniProt P0A0C1) | NCC[C@H](O)C(=O)N[C@@H]1C[C@H](N)[C@@H](O[C@H]2O[C@H](CN)[C@@H](O)[C@H](O)[C@H]2O)[C@H](O)[C@H]1O[C@H]1O[C@H](CO)[C@@H](O)[C@H](N)[C@H]1O | pH 7.5 | 25 °C | – | – | 0.58 ± 0.04 |
| B6 (enzyme D392A) | Nc1ncnc2c1ncn2[C@@H]1O[C@H](CO)[C@H]2OP(=O)(O)O[C@H]21 | pH 7.5 | 45 °C | – | – | 1.77 ± 0.075 |
| dmhA (Campylobacter jejuni, UniProt Q5M6Q7) | Nc1nc2c(ncn2[C@@H]2O[C@H](COP(=O)(O)OP(=O)(O)O[C@H]3O[C@H]([C@H](O)CO)[C@@H](O)[C@H](O)[C@@H]3O)[C@@H](O)[C@H]2O)c(=O)[nH]1 | pH 7.5 | 30 °C | – | – | 1.64 ± 0.04 |

Repeated from above:
| Substance | substrate | pH | temperature | notes | with | kcat [s⁻¹] |
| --- | --- | --- | --- | --- | --- | --- |
| aacA-aphD (Staphylococcus aureus, UniProt P0A0C1) | NCC[C@H](O)C(=O)N[C@@H]1C[C@H](N)[C@@H](O[C@H]2O[C@H](CN)[C@@H](O)[C@H](O)[C@H]2O)[C@H](O)[C@H]1O[C@H]1O[C@H](CO)[C@@H](O)[C@H](N)[C@H]1O | pH 7.5 | 25 °C | – | – | 0.58 ± 0.04 |
| B6 (enzyme D392A) | Nc1ncnc2c1ncn2[C@@H]1O[C@H](CO)[C@H]2OP(=O)(O)O[C@H]21 | pH 7.5 | 45 °C | – | – | 1.77 ± 0.075 |
